Results gathered from unrelated publications.
Compare with care: the assays were run in different laboratories. Numbers after ± are the reported error.
CALM1: CALM1 (Homo sapiens, UniProt P0DP23)
Tln1: Tln1 309-405 (Mus musculus, UniProt P26039)
Sequence of UniProt P26039 (whole entry, looked up): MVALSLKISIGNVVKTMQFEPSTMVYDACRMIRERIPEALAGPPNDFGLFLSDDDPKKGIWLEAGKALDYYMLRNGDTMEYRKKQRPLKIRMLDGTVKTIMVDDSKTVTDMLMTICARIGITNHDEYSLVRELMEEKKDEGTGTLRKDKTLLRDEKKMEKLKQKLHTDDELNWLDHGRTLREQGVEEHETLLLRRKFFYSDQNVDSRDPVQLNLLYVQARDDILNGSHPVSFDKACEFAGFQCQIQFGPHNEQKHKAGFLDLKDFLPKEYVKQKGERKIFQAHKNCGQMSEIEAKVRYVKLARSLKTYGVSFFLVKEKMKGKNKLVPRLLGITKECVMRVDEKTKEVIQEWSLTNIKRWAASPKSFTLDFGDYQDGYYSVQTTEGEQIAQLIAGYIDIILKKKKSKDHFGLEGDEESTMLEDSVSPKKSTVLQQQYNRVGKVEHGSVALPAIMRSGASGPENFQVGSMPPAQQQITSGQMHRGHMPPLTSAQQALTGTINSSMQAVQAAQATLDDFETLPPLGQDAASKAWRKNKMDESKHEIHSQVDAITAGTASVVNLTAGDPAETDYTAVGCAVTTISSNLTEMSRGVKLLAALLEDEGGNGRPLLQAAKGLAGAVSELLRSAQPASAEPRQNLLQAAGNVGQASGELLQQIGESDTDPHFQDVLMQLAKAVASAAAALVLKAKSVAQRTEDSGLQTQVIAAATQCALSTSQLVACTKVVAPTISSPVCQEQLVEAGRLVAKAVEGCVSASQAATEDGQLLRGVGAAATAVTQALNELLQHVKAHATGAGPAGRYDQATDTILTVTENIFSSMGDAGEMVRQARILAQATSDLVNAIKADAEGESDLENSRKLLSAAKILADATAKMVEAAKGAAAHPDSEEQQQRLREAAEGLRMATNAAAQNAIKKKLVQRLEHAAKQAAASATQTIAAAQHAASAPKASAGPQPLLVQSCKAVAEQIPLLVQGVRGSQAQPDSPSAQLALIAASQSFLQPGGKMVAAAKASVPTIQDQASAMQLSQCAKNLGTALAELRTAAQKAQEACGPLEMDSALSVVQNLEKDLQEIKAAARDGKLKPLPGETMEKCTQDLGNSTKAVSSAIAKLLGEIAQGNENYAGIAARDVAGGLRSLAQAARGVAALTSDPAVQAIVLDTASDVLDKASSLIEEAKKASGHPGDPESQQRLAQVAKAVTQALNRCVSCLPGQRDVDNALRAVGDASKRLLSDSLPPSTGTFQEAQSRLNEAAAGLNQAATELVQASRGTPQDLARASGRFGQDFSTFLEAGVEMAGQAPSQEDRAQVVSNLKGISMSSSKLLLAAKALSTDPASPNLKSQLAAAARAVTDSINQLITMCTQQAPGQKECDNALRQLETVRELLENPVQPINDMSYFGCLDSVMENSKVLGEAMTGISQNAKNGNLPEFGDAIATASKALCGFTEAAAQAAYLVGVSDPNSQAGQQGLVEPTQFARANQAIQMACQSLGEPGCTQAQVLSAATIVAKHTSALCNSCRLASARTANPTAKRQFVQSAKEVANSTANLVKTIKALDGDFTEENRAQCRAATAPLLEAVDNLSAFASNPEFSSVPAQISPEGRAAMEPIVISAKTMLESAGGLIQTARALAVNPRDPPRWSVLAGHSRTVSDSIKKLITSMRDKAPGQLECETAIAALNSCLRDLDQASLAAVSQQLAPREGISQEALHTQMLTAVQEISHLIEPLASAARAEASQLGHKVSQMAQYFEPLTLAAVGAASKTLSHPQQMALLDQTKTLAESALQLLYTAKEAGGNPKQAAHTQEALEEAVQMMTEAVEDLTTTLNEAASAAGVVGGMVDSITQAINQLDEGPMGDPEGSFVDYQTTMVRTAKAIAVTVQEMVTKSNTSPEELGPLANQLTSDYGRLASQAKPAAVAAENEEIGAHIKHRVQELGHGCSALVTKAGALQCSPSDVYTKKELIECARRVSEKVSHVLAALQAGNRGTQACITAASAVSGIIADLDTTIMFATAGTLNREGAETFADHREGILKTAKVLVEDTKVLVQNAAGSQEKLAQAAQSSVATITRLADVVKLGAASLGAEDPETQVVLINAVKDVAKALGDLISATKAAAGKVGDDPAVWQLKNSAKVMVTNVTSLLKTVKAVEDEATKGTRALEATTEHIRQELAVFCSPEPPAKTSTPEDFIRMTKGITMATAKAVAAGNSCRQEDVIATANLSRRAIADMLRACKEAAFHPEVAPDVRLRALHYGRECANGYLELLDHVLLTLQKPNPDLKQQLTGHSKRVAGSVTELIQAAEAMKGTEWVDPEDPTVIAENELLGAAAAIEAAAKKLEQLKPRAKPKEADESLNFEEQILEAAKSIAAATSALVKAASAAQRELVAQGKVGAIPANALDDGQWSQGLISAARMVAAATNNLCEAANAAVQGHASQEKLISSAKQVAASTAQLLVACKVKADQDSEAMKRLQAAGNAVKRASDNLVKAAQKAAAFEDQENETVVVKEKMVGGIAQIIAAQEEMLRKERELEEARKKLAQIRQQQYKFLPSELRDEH
B1: mxt 577-640 (Drosophila melanogaster, UniProt Q9VR35); sequence looked up; chain SRVSYDIEHLLYYSMSPHSWTLPTDWQKMQETAPSILRNKDLQDESQRFDGDKYLASIKTAAKR
B2: C1s CCP2-SP domains; glycosylated; chain 1 VDCGIPESIENGKVEDPESTLFGSVIRYTCEEPYYYMENGGGGEYHCAGNGSWVNEVLGPELPKCVPVCGVPREPFEEKQR; chain 2 IIGGSDADIKNFPWQVFFDNPWAGGALINEYWVLTAAHVVEGNREPTMYVGSTSVQTSRLAKSKMLTPEHVFIHPGWKLLEVPEGRTNFDNDIALVRLKDPVKMGPTVSPICLPGTSSDYNLMDGDLGLISGWGRTEKRDRAVRLKAARLPVAPLRKCKEVKVEKPTADAEAYVFTPNMICAGGEKGMDSCKGDAGGAFAVQDPNDKTKFYAAGLVSWGPQCGTYGLYTRVKNYVDWIMKTMQENSTPRED
B3: Cacna1c 1647-1777 (Mus musculus, UniProt Q01815); sequence looked up; chain NALSLQAGLRTLHDIGPEIRRAISGDLTAEEELDKAMKEAVSAASEDDIFRRAGGLFGNHVTYYQSDSRGNFPQTFATQRPLHINKTGNNQADTESPSHEKLVDSTFTPSSYSSTGSNANINNANNTALGR
B4: BRAF kinase 448-723 K723G/P722S/S720E/L716E/S713E/Q709R/L706S/A688R/Y673S/R671A/K630S/V600E/L588N/Q562R (Homo sapiens, UniProt P15056); sequence looked up; chain DDWEIPDGQITVGQRIGSGSFGTVYKGKWHGDVAVKMLNVTAPTPQQLQAFKNEVGVLRKTRHVNILLFMGYSTKPQLAIVTQWCEGSSLYHHLHASETKFEMKKLIDIARQTARGMDYLHAKSIIHRDLKSNNIFLHEDNTVKIGDFGLATEKSRWSGSHQFEQLSGSILWMAPEVIRMQDSNPYSFQSDVYAFGIVLYELMTGQLPYSNINNRDQIIFMVGAGSLSPDLSKVRSNCPKRMKRLMAECLKKKRDERPSFPRILAEIEELARELSG
B5: protein 1-89 (Arabidopsis thaliana, UniProt Q9LYC2); sequence looked up; chain MTMLRVRSRDGLERVSVDGPHITVSQLKTLIQDQLQIPIHNQTLSTNRNLLLAKSPSDFLAFTDMADPNLRISSLNLAHGSMVYLAYEG
B6: Mena EVH1 1-113 (Homo sapiens, UniProt Q8N8S7); chain MSEQSICQARAAVMVYDDANKKWVPAGGSTGFSRVHIYHHTGNNTFRVVGRKIQDHQVVINCAIPKGLKYNQATQTFHQWRDARQVYGLNFGSKEDANVFASAMMHALEVLNS
B7: acpP (Escherichia coli, UniProt P0A6A8); 4-DMN-phosphopantetheine; sequence looked up; chain MSTIEERVKKIIGEQLGVKQEEVTNNASFVEDLGADSLDTVELVMALEEEFDTEIPDEEAEKITTVQAAIDYINGHQA
B8: CDC48A 1-190 (Arabidopsis thaliana, UniProt P54609); chain MSTPAESSDSKSKKDFSTAILERKKSPNRLVVDEAINDDNSVVSLHPATMEKLQLFRGDTILIKGKKRKDTVCIALADETCEEPKIRMNKVVRSNLRVRLGDVISVHQCPDVKYGKRVHILPVDDTVEGVTGNLFDAYLKPYFLEAYRPVRKGDLFLVRGGMRSVEFKVIETDPAEYCVVAPDTEIFCEG
B9: IgG L:I27A; V domains shown; VH QVQLVQSGAEVKKPGASVKVSCKASGYTFTNYGLSWVRQAPGQGLEWMGWISANNGDTNYGQEFQGRVTMTTDTSTSTAYMELRSLRSDDTAVYYCARDSSSSWARWFFDLWGRGTLVTVSS; VL SYVLTQPPSVSVAPGKTARITCGGNAIGSKLVHWYQQKPGQAPVLVIYDDGDRPSGIPERFSGSNSGNTATLTISRVEAGDEADYYCQVWDTGSDPVVFGGGTKLTVL
B10: DNAJB11 23-358 (Homo sapiens, UniProt Q9UBS4); chain GRDFYKILGVPRSASIKDIKKAYRKLALQLHPDRNPDDPQAQEKFQDLGAAYEVLSDSEKRKQYDTYGEEGLKDGHQSSHGDIFSHFFGDFGFMFGGTPRQQDRNIPRGSDIIVDLEVTLEEVYAGNFVEVVRNKPVARQAPGKRKCNCRQEMRTTQLGPGRFQMTQEVVCDECPNVKLVNEERTLEVEIEPGVRDGMEYPFIGEGEPHVDGEPGDLRFRIKVVKHPIFERRGDDLYTNVTISLVESLVGFEMDITHLDGHKVHISRDKITRPGAKLWKKGEGLPNFDNNNIKGSLIITFDVDFPKEQLTEEAREGIKQLLKQGSVQKVYNGLQGY
B11: CFH domains 1108-1231 R1210C (Homo sapiens, UniProt P08603); sequence looked up; chain KCGPPPPIDNGDITSFPLSVYAPASSVEYQCQNLYQLEGNKRITCRNGQWSEPPKCLHPCVISREIMENYNIALRWTAKQKLYSRTGESVEFVCKRGYRLSSCSHTLRTTCWDGKLEYPTCAKR
B12: LLGL2 13-978 (Homo sapiens, UniProt Q6P1M3); phosphorylated serines; chain RERLKRDLFQFNKTVEHGFPHQPSALGYSPSLRILAIGTRSGAIKLYGAPGVEFMGLHQENNAVTQIHLLPGQCQLVTLLDDNSLHLWSLKVKGGASELQEDESFTLRGPPGAAPSATQITVVLPHSSCELLYLGTESGNVFVVQLPAFRALEDRTISSDAVLQRLPEEARHRRVFEMVEALQEHPRDPNQILIGYSRGLVVIWDLQGSRVLYHFLSSQQLENIWWQRDGRLLVSCHSDGSYCQWPVSSEAQQPEPLRSLVPYGPFPCKAITRILWLTTRQGLPFTIFQGGMPRASYGDRHCISVIHDGQQTAFDFTSRVIGFTVLTEADPAATFDDPYALVVLAEEELVVIDLQTAGWPPVQLPYLASLHCSAITCSHHVSNIPLKLWERIIAAGSRQNAHFSTMEWPIDGGTSLTPAPPQRDLLLTGHEDGTVRFWDASGVCLRLLYKLSTVRVFLTDTDPNENFSAQGEDEWPPLRKVGSFDPYSDDPRLGIQKIFLCKYSGYLAVAGTAGQVLVLELNDEAAEQAVEQVEADLLQDQEGYRWKGHERLAARSGPVRFEPGFQPFVLVQCQPPAVVTSLALHSEWRLVAFGTSHGFGLFDHQQRRQVFVKCTLHPSDQLALEGPLSRVKSLKKSLRQSFRRMRRSRVSSRKRHPAGPPGEAQEGSAKAERPGLQNMELAPVQRKIEARSAEDSFTGFVRTLYFADTYLKDSSRHCPSLWAGTNGGTIYAFSLRVPPAERRMDEPVRAEQAKEIQLMHRAPVVGILVLDGHSVPLPEPLEVAHDLSKSPDMQGSHQLLVVSEEQFKVFTLPKVSAKLKLKLTALEGSRVRRVSVAHFGSRRAEDYGEHHLAVLTNLGDIQVVSLPLLKPQVRYSCIRREDVSGIASCVFTKYGQGFYLISPSEFERFSLSTKWLVEPRCLVDSAETKNHRPGNGAGPKKAPSRARNSGTQSDGEEKQPGLVMER
Sequence of UniProt P25963 (whole entry, looked up): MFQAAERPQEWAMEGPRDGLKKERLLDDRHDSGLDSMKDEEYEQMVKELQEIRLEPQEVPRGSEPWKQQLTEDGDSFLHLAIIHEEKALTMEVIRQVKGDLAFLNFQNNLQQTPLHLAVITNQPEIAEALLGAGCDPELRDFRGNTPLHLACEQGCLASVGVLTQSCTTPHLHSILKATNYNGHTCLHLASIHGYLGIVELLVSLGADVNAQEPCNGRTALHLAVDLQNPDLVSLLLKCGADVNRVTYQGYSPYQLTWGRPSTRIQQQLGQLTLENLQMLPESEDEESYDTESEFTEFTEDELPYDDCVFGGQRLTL
Sequence of UniProt O95967 (whole entry, looked up): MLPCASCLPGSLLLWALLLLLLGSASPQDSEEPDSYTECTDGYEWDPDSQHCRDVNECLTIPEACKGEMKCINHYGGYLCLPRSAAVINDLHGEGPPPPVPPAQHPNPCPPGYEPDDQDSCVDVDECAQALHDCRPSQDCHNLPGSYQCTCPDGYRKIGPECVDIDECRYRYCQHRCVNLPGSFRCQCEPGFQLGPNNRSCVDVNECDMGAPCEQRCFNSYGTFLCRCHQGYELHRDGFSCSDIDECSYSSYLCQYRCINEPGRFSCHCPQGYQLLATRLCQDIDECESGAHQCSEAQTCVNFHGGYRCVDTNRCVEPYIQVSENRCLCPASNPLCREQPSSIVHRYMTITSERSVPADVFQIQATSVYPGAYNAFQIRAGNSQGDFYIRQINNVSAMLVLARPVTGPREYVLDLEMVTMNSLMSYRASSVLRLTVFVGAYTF
Sequence of UniProt O35295 (whole entry, looked up): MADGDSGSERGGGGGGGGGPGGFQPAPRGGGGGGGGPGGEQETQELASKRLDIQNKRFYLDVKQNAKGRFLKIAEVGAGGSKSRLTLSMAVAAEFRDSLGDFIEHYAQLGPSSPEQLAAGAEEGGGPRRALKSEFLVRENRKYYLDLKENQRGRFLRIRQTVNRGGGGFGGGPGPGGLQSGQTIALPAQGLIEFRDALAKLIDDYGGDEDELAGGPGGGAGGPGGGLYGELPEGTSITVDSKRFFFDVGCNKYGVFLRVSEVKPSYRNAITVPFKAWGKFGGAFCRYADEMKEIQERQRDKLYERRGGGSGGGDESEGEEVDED
Sequence of UniProt Q7Z553 (whole entry, looked up): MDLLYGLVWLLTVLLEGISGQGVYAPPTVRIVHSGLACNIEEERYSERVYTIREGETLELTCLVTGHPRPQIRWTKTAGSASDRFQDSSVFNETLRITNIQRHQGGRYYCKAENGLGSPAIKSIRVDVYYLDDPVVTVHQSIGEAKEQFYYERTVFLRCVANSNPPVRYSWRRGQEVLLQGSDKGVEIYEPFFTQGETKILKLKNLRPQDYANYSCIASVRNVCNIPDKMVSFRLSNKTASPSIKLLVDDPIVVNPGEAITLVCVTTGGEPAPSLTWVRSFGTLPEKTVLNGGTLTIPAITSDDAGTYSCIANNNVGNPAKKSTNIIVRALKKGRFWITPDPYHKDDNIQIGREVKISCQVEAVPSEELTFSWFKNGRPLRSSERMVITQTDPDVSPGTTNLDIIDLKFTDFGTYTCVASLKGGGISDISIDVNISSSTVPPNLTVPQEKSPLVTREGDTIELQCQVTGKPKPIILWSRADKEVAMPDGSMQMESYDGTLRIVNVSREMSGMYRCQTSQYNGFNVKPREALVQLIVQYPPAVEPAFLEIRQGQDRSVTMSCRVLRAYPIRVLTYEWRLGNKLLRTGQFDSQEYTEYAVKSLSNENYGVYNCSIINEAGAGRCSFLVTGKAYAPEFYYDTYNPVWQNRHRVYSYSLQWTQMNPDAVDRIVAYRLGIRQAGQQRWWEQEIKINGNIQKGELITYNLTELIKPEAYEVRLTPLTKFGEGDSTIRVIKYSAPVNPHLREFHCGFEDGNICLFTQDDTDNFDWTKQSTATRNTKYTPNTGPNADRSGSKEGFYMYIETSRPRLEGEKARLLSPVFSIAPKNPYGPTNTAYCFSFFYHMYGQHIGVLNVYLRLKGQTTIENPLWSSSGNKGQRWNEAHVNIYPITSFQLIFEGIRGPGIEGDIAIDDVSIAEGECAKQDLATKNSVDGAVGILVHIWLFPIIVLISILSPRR
Sequence of UniProt P13001 (whole entry, looked up): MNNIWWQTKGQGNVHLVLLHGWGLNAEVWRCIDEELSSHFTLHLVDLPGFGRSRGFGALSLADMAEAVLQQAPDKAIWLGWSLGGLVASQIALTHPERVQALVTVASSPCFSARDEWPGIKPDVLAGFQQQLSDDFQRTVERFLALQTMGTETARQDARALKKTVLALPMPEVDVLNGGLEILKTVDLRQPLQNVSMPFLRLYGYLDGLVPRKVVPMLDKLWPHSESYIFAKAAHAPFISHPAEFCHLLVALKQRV

For `ENAH EVH1 domain (Homo sapiens)`, the Kd was 11800 nM (WBP2 20-residue peptide (Homo sapiens); BLI).
The Kd of `B1 (mxt 577-640)` is reported as 0.52 nM (eIF4E1 69-248 (Drosophila melanogaster, UniProt P48598-2); ITC).
`B2 (C1s CCP2-SP domains)` has a Kd of 7200 nM (SERPING1 111-500 (Homo sapiens, UniProt P05155); SPR; added: Ca2+).
The Kd of `ESKDHQLLRYLLDKDEKDL (NCOA1 peptide; N-terminal 5-FAM)` is reported as 20600 nM (PPARG 202-477 (Homo sapiens, UniProt P37231-2); FP; peptide).
`B3 (Cacna1c 1647-1777)` has a Kd of 9270 nM (Jph2 1-440 S165A (Mus musculus, UniProt Q9ET78); ITC).
The Kd of `FBLN4, N-glycosylated (Homo sapiens, UniProt O95967)` is reported as 22.6 nM (ELN 27-724 (Homo sapiens, UniProt P15502-2); SPR).
With `Ybx1 (Mus musculus, UniProt P62960)` the Kd was 31.4 ± 3.7 nM (Purb (Mus musculus, UniProt O35295); ELISA).
`CALLLSAPRR (GOT2 (Gallus gallus); fluorescein label)` gave a Kd of 24700 nM (HSPA9 mature G489E (Homo sapiens, UniProt P38646); FP; peptide).
`F9 heavy and light chains, activated (UniProt P00740)` has a Kd of 1.2 nM (F8 activated, A1/A2/A3-C1-C2 R336Q/R562Q/D519V/E665V (Homo sapiens); FXa generation, factor Xa generation rate; added: FX).
`B4` has a Kd of 29.9 ± 2.85 nM (MAP2K1 (Homo sapiens, UniProt Q02750); BLI).
`SCN2A fragment Q1913R (Homo sapiens) (sequence not shown)` gave a Kd of 2070 nM (CALM1; fluorescence titration; added: CaCl2).
`B5 (protein 1-89)` gave a Kd of 3200 nM (CDC48A (Arabidopsis thaliana, UniProt P54609); ITC; added: AMPPNP).
For `B6 (Mena EVH1 1-113)`, the Kd was 3100 nM (PCARE peptide (Homo sapiens); intrinsic tryptophan fluorescence).
`B7 (acpP)` has a Kd of 1130 nM (BioH, His tag omitted (UniProt P13001); fluorescence titration).
The Kd of `GSGASGTSKCCYSLPATT (designed peptide)` is reported as 150 ± 20 nM (ERBB2 23-652 (Homo sapiens, UniProt P04626); fluorescence titration; peptide; apparent).
With `KLLMIIHDRREFAKFEKEKMNAKWDTQENPIYKSPVTTVVNPKYEGK (ITGB1 752-798 G778Q/A786P (Homo sapiens, UniProt P05556-1); sequence looked up)` the Kd was 135000 nM (Tln1; NMR titration).
For `B8 (CDC48A 1-190)`, the Kd was 9.6 ± 0.1 nM (PUX6 (Arabidopsis thaliana, UniProt F4IXN6); BLI; 25 °C).
The Kd of `B9 (IgG L:I27A)` is reported as 0.519 nM (IL13 fragment (Homo sapiens); SPR; antibody).
The Kd of `MDGA2 (Homo sapiens, UniProt Q7Z553)` is reported as 102 nM (EPHB2 (Homo sapiens, UniProt P29323); Scatchard binding to cells; HEK293T; in cells).
The Kd of `LPDTDDRHRIEEKRKRTYETFKSIMKKSPFNGP (Rela 289-321 (Mus musculus, UniProt Q04207); sequence looked up)` is reported as 800 ± 64 nM (NFKBIA 67-206 (Homo sapiens, UniProt P25963); ITC; peptide).
For `B10 (DNAJB11 23-358)`, the Kd was 17800 ± 4600 nM (HSPA5 28-654 K294F (Homo sapiens, UniProt P11021); MST).
For `PUX7 fragment (Arabidopsis thaliana)`, the Kd was 3200 ± 400 nM (CDC48A 1-463 (Arabidopsis thaliana, UniProt P54609); ITC; 10 °C).
For `ptsH fragment (Escherichia coli) (sequence not shown)`, the Kd was 41400 ± 3800 nM (ptsI fragment (Escherichia coli); NMR titration; dilute buffer).
With `GCVRLHESCLGQQVPCCDPAATCYCYGRGDNDLRCYCR (designed binder)` the Kd was 1.8 nM (ITGAV/ITGB3 U87MG cells (Homo sapiens); flow cytometry; designed binder, U87MG).
The Kd of `LSSKEVDPSTGELQSLQMPE (SQSTM1 341-360; N-acetyl, C-terminal amide)` is reported as 1700 nM (KEAP1 321-609 (Homo sapiens, UniProt Q14145); ITC; peptide).
`KLLITIHDRKEFAKFEEERARAKWDTAENPIYKEATSTFTNITYRGT (ITGB3 742-788 N743E/L746I (Homo sapiens, UniProt P05106); sequence looked up)` has a Kd of 201000 nM (Tln1; NMR titration).
The Kd of `B11 (CFH domains 1108-1231 R1210C)` is reported as 5300 ± 200 nM (C3 996-1303 (Homo sapiens, UniProt P01024); SPR).
For `SCN2A IQ region R1902C (Homo sapiens) (sequence not shown)`, the Kd was 52.5 nM (CALM1; fluorescence titration; pH 7.4, 22 °C, added: calcium).
With `B12 (LLGL2 13-978)` the Kd was 76.5 ± 14.5 nM (PRKCI/PARD6B, activation loop phosphorylated; BLI; steady-state KD, added: AMP-PNP).
With `BRCA1 coiled-coil domain I1405V (Homo sapiens)` the Kd was 21000 nM (PALB2 1-56 (Homo sapiens, UniProt Q86YC2); ITC).
The MIC of `colistin` is reported as 1 µg/mL (Enterobacter cloacae; broth microdilution; clinical isolate RKI-No_210/15).
`CDH2 extracellular domain (Homo sapiens)` has a Kd of 18.8 nM (FGB residues 15-66, dimer (Homo sapiens); ELISA; added: EDTA).
The Kd of `LEIEPRNPKP (SOS1 proline-rich peptide, 1014-1023)` is reported as 730000 nM (GRB2 1-58 (Homo sapiens, UniProt P62993); NMR titration; peptide).

Excerpt of the above:
For `B6 (Mena EVH1 1-113)`, the Kd was 3100 nM (PCARE peptide (Homo sapiens); intrinsic tryptophan fluorescence).
`B7 (acpP)` has a Kd of 1130 nM (BioH, His tag omitted (UniProt P13001); fluorescence titration).
The Kd of `GSGASGTSKCCYSLPATT (designed peptide)` is reported as 150 ± 20 nM (ERBB2 23-652 (Homo sapiens, UniProt P04626); fluorescence titration; peptide; apparent).
With `KLLMIIHDRREFAKFEKEKMNAKWDTQENPIYKSPVTTVVNPKYEGK (ITGB1 752-798 G778Q/A786P (Homo sapiens, UniProt P05556-1); sequence looked up)` the Kd was 135000 nM (Tln1; NMR titration).
For `B8 (CDC48A 1-190)`, the Kd was 9.6 ± 0.1 nM (PUX6 (Arabidopsis thaliana, UniProt F4IXN6); BLI; 25 °C).
